Assay results collected from several papers.
Compare with care: the assays were run in different laboratories. Numbers after ± are the reported error.
UniProt Q06911, sequence (whole entry, looked up): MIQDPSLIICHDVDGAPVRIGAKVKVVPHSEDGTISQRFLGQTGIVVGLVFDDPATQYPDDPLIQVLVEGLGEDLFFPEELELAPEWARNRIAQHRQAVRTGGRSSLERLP
UniProt Q96SW2, sequence (whole entry, looked up): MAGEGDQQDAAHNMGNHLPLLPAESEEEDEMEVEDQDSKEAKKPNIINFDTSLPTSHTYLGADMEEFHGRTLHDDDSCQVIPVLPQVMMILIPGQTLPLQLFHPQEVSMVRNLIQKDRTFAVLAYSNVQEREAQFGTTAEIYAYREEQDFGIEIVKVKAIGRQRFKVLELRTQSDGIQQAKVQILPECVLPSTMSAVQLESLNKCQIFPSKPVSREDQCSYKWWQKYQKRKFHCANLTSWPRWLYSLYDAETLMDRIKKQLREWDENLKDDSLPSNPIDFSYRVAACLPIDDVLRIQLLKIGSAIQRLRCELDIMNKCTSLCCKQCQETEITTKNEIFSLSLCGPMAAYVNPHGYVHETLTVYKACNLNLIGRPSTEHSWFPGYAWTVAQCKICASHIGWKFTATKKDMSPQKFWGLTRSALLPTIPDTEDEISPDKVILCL
UniProt Q16881, sequence (whole entry, looked up): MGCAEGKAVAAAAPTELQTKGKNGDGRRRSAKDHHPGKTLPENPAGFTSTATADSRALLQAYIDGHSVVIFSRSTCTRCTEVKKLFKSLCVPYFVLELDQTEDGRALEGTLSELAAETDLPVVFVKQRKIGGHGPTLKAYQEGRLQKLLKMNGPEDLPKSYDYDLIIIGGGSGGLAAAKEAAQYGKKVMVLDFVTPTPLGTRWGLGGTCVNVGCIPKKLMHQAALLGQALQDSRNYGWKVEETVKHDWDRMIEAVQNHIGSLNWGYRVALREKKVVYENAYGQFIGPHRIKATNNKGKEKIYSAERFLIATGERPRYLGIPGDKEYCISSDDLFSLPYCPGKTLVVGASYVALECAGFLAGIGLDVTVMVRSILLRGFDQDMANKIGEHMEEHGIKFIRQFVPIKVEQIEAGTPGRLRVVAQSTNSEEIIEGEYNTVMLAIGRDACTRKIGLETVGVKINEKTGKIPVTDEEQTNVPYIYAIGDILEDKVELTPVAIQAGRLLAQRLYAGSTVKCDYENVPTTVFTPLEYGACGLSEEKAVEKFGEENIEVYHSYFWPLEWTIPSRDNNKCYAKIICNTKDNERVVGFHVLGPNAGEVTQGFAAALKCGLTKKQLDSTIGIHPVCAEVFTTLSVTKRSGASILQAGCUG
UniProt P16257, sequence (whole entry, looked up): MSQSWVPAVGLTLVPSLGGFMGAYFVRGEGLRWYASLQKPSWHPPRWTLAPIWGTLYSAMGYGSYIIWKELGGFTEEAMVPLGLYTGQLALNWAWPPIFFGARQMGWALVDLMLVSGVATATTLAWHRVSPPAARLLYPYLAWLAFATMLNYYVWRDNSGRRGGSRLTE
UniProt P05067, sequence (whole entry, looked up): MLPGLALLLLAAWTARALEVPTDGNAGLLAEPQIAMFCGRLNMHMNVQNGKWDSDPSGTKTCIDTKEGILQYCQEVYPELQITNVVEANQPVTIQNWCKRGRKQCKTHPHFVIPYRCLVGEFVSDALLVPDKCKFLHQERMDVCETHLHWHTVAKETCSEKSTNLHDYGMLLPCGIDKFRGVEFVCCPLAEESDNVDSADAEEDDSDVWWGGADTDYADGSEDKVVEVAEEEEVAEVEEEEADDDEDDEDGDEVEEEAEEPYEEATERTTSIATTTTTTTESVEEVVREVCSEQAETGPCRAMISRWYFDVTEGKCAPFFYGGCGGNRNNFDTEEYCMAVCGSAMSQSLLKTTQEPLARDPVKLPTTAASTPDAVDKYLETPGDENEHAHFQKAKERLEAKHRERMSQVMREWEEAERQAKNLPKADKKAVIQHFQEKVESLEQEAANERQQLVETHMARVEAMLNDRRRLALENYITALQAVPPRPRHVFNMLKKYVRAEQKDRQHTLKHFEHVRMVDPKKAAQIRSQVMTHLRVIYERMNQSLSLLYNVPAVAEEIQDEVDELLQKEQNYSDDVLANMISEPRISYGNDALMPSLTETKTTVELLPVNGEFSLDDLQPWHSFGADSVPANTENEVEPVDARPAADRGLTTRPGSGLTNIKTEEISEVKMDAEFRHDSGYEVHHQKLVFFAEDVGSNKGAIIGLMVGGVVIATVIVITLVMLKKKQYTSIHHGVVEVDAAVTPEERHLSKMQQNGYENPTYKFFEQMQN
UniProt P48729, sequence (whole entry, looked up): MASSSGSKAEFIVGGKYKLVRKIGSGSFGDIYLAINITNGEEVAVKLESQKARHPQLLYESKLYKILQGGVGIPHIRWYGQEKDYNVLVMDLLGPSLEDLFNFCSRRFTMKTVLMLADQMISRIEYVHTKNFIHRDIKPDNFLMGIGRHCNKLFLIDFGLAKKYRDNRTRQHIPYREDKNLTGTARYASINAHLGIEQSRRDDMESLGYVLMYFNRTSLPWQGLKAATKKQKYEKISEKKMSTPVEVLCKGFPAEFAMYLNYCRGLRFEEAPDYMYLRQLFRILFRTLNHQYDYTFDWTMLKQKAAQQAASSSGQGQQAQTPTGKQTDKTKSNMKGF
UniProt P28907, sequence (whole entry, looked up): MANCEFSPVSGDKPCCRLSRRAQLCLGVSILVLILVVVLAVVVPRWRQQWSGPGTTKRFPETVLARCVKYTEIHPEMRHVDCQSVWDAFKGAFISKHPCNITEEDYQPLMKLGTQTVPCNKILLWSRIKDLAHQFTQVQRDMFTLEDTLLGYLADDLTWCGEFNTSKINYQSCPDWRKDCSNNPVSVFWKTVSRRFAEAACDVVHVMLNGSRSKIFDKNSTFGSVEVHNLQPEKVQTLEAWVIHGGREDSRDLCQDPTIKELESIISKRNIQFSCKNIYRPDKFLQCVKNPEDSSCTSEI
UniProt P23919, sequence (whole entry, looked up): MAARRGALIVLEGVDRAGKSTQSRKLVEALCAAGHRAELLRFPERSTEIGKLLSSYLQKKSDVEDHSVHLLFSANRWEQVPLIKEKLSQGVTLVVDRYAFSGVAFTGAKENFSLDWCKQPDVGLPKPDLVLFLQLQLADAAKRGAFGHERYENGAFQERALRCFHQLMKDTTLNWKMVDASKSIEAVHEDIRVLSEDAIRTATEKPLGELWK
UniProt Q6W5P4, sequence (whole entry, unmodified, looked up): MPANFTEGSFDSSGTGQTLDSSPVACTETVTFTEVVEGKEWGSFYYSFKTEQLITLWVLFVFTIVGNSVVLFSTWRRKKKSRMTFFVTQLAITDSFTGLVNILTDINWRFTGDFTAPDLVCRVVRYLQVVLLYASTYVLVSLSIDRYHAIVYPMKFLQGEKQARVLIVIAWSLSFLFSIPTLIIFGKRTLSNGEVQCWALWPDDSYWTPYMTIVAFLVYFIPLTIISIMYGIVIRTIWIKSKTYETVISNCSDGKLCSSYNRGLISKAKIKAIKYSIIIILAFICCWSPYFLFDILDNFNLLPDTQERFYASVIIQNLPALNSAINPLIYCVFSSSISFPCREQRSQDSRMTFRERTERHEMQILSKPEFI

SMILES	target	test	system	conditions	scale	quantity	value
O=C1CC[C@H](N2Cc3cc(-c4cnn5ccc(Cl)nc45)ccc3C2=O)C(=O)N1	Cereblon/Casein kinase I alpha (CSNK1A1/CRBN, Homo sapiens, UniProt P48729+Q96SW2)	protein level, degrader, luciferase	MOLT-4	–	–	Dmax	50%
CCc1nc2cc3ccccc3cc2cc1C(=O)N1CCC[C@H]1C(=O)N[C@@H](C/C=C/C[C@H](NC(=O)[C@@H]1CCCN1C(=O)c1cc2cc3ccccc3cc2nc1CC)C(=O)N[C@@H](CCCCN)C(=O)NCCCN)C(=O)N[C@@H](CCCCN)C(=O)NCCCN	HIV-1 frameshift site RNA	SPR	–	–	–	residence time	177 s
O=c1c(O)c(-c2ccc(O)cc2O)oc2cc(O)cc(O)c12	CD38 (Homo sapiens, UniProt P28907)	cyclase activity, fluorometric	–	50 µM, added: NGD+ substrate	relative to: untreated	remaining activity	21 ± 2.3%
CC(=O)NCCN(CCC(=O)NCCN(CCC(=O)NCCN(CCC(=O)NCCC(N)=O)C(=O)[C@@H](N)CCCNC(=N)N)C(=O)[C@@H](N)CCCNC(=N)N)C(=O)[C@@H](N)Cc1ccccc1	HIV-1 TAR RNA	–	–	25 °C	–	binding free energy ΔG°	-8.8 ± 0.335 kcal/mol
Cc1cn([C@@H]2C[C@@H](O)[C@H](COP(=O)(O)O)O2)c(=O)[nH]c1=O	Thymidylate kinase (DTYMK, Homo sapiens, UniProt P23919)	substrate, coupled spectrophotometric	–	–	relative to: D-dTMP	relative catalytic efficiency	~0.7%
[123I]c1ccc2nc(-c3ccc(-n4ccnn4)nc3)cn2c1	Amyloid-beta precursor protein, amyloid-beta (APP, Homo sapiens, UniProt P05067)	SPECT	Alzheimer's disease patients, subcortical white matter	150 to 240 min	relative to: cerebellum	SUVR	0.98 ± 0.09
CC(=O)NCCN(CC(=O)NCCN(CC(=O)NCCN(CC(=O)NCCC(N)=O)C(=O)C[C@@H](N)CCCNC(=N)N)C(=O)C[C@@H](N)CCCNC(=N)N)C(=O)C[C@@H](N)Cc1ccccc1	HIV-1 TAR RNA	–	–	concentration not given	–	heat capacity change ΔCp	-1.99 ± 0.28 kJ/mol/K
CCc1cc(C)n2nc(-c3ccc(OCC[18F])cc3)c(CC(=O)N(CC)CC)c2n1	Tspo (Rattus norvegicus, UniProt P16257)	two-tissue compartment model	rat C6 glioma model, brain	60 min dynamic PET	–	k2 efflux rate constant	3.1 ± 0.83 min⁻¹
CC[C@H](C)[C@H](NC(=O)CNC(C)=O)C(=O)N[C@@H](CCCNC(=N)N)C(=O)N[C@@H](CCC(=O)O)C(=O)N[C@@H](C)C(=O)N[C@H](C(=O)N[C@@H](CC(C)C)C(=O)N[C@@H](CCCNC(=N)N)C(=O)N[C@@H](C)C(=O)N[C@@H](Cc1c[nH]c2ccccc12)C(=O)N[C@@H](CCC(=O)O)C(=O)N[C@@H](CCCNC(=N)N)C(=O)N[C@@H](CCCNC(=N)N)C(=O)N[C@@H](Cc1ccc(O)cc1)C(=O)NCC(=O)N[C@@H](Cc1ccccc1)C(=O)N1CCC[C@H]1C(=O)N[C@@H](CCCNC(=N)N)C(=O)N1CCC[C@H]1C(=O)N[C@@H](CC(C)C)C(=O)N[C@@H](CCCNC(=N)N)C(=O)N[C@@H](CO)C(=O)N[C@@H](CCC(=O)O)C(N)=O)[C@@H](C)O	Antirepressor protein CarS (carS, Myxococcus xanthus, UniProt Q06911)	ITC	–	concentration not given, pH 7.5, 25 °C	–	binding stoichiometry	0.92 ± 0.02
N=C(N)NCCC[C@H](NC(=O)[C@H](Cc1ccccc1)NC(=O)[C@@H](N)CO)C(=O)N[C@@H](CC(N)=O)C(=O)NCC(N)=O	NPSR1 (Homo sapiens, UniProt Q6W5P4, N107I)	calcium mobilization, agonist	CHO-Galpha16	unit not given	relative to: maximal assay window	maximal response	0.96
CC(C)c1cccc(C(C)C)c1N1CCN(c2c(C(C)C)cccc2C(C)C)C1=[Se].[Cl][Ag]	TXNRD1 (Homo sapiens, UniProt Q16881)	–	H157	1 µM, 24 h	relative to: compound over auranofin	relative TrxR inhibition	2.4

A few entries again:
SMILES	target	test	system	conditions	scale	quantity	value
CC(=O)NCCN(CC(=O)NCCN(CC(=O)NCCN(CC(=O)NCCC(N)=O)C(=O)C[C@@H](N)CCCNC(=N)N)C(=O)C[C@@H](N)CCCNC(=N)N)C(=O)C[C@@H](N)Cc1ccccc1	HIV-1 TAR RNA	–	–	concentration not given	–	heat capacity change ΔCp	-1.99 ± 0.28 kJ/mol/K
